Experimental data of several laboratories.
Protocols differ between the studies behind these lines. “And” joins repeats or separate records; there may be more than shown. Numbers after ± are the reported error.
pbp2a: Penicillin-binding protein 2a (pbp2a, Streptococcus pneumoniae, UniProt Q8DNB6)
Chain of UniProt Q8DNB6 (whole entry, looked up): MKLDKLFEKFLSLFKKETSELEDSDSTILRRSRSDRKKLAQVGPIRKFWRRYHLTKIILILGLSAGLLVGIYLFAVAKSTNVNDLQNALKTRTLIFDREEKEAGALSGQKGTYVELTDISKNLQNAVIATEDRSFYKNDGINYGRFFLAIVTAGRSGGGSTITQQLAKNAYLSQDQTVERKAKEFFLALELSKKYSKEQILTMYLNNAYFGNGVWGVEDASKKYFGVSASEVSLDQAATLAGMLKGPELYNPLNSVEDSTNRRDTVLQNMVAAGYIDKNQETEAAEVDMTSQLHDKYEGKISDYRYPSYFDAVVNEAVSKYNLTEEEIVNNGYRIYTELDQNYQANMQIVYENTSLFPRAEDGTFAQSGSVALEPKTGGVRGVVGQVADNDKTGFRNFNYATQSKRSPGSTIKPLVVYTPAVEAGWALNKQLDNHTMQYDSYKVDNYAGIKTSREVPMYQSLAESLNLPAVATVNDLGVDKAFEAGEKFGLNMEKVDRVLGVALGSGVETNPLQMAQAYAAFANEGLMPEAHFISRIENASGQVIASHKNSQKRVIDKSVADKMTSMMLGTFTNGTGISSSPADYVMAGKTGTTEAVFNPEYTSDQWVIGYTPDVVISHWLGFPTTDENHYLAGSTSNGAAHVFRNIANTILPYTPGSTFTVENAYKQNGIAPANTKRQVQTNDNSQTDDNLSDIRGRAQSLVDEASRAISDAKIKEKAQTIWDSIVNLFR
Ahsg: Alpha-2-HS-glycoprotein (Ahsg, Rattus norvegicus, UniProt P24090)
Chain of UniProt P24090 (whole entry, looked up): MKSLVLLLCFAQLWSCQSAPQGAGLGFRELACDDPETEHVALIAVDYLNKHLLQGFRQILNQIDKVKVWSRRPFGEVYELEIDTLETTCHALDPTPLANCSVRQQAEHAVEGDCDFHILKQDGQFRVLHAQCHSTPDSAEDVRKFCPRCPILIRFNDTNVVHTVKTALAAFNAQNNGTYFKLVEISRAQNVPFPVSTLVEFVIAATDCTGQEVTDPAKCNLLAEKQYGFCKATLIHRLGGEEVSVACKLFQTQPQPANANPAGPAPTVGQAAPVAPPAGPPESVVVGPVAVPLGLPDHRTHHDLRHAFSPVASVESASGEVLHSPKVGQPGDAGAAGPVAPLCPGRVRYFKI
Chain of UniProt Q62351 (whole entry, looked up): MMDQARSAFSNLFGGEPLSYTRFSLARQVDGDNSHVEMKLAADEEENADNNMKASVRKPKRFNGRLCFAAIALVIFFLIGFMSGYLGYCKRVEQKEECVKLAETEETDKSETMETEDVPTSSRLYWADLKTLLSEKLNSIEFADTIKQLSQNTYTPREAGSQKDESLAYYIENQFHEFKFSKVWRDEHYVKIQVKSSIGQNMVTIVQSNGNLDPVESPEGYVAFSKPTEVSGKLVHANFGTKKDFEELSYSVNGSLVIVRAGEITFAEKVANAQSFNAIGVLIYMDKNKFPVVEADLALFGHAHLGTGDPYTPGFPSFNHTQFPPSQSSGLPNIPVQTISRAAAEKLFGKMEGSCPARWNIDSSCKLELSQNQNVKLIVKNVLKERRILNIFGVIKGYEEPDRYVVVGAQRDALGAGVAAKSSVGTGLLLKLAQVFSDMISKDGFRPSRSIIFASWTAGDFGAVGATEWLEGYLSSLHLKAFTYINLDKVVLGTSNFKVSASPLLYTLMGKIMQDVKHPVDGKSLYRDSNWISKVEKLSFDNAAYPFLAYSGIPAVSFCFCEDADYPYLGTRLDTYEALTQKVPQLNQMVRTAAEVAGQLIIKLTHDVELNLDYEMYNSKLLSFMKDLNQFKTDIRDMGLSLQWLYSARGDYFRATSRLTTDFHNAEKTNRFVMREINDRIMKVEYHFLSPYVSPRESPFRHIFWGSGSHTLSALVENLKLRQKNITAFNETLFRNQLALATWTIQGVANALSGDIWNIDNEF
Chain of UniProt P12763 (whole entry, looked up): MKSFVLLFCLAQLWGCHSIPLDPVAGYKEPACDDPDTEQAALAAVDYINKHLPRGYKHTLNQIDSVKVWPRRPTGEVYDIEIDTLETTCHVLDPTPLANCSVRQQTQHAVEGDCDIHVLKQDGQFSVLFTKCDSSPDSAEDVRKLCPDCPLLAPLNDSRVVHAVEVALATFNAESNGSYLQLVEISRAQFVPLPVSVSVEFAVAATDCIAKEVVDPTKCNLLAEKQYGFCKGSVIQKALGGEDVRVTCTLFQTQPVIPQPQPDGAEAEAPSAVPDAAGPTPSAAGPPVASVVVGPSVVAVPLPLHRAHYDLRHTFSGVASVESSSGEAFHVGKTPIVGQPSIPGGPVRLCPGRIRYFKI
Chain of UniProt P46092 (whole entry, looked up): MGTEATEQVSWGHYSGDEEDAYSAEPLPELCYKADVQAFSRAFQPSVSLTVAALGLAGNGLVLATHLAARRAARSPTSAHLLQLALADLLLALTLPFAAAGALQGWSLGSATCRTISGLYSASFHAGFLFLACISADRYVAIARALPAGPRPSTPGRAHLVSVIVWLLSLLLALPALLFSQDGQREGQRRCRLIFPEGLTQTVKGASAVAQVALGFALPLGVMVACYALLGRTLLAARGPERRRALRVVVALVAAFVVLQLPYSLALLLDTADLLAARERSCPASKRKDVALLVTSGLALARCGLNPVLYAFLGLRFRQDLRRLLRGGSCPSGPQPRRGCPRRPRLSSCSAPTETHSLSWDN
Chain of UniProt O15164 (whole entry, looked up): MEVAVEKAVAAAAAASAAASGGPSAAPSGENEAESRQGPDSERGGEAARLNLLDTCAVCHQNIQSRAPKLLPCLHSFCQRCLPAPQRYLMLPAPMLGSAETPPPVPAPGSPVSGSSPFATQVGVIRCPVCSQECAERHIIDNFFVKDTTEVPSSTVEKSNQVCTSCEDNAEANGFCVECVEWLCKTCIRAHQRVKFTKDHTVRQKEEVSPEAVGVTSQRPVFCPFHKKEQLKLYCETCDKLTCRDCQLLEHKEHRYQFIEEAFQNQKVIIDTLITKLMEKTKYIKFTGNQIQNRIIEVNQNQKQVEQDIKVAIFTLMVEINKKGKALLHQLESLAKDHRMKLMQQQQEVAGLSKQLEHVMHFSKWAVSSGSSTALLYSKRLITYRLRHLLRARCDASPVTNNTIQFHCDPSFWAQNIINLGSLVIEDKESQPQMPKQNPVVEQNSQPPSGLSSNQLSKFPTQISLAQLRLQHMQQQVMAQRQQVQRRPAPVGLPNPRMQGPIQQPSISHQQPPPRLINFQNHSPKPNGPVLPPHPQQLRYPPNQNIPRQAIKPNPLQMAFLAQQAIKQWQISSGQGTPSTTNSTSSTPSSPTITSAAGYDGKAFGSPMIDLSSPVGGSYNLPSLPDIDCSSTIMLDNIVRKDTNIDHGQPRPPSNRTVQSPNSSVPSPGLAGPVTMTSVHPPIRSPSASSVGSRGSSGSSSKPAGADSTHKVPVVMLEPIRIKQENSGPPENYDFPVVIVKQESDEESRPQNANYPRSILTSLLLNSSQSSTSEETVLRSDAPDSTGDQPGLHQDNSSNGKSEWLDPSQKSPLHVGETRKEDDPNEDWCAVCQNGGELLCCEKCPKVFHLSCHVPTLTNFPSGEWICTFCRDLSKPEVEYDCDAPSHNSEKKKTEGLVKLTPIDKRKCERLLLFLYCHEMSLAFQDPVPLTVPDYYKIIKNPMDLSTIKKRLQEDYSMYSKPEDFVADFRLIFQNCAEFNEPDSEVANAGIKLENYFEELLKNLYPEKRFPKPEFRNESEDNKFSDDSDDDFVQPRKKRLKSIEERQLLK

CN1CCN(c2cc(-c3ccncc3)c(-c3ccc4ccccc4c3)nn2)CC1 has an activation of -2.7% (CCR10 (Homo sapiens, UniProt P46092); agonist, FLIPR; 12.5 µM).
COc1cc(Nc2ncc(F)c(Nc3ccc4c(n3)NC(=O)C(C)(C)O4)n2)cc(OC)c1OC gave an inhibition of 60% (GSK3A (Homo sapiens, UniProt P49840); KINOMEscan; 10 µM).
With C[C@H]1CN(c2n[nH]c3nc(N[C@H]4CC[C@H](NS(=O)(=O)CCC(F)(F)F)CC4)ncc23)CCO1 the relative abundance was 0.98 (KHSRP (Homo sapiens, UniProt Q92945); inhibitor, Kinobeads competition profiling; 0.032 µM; reference: vehicle).
For CC1(C)S[C@@H]2[C@H](NC(=O)[C@H](N)c3ccccc3)C(=O)N2[C@H]1C(=O)O, the kinact/KI was 4600 ± 480 M⁻¹ s⁻¹ (pbp2a; inhibitor).
With Nc1ncc(-c2nc(N3CCOCC3)nc(N3CCOCC3)n2)c(C(F)F)n1 the remaining binding was 77% (MAP3K1 (Homo sapiens, UniProt Q13233); KINOMEscan; 10 µM).
CN(C(=O)n1cnc(-c2ccc[n+]([O-])c2)c1)C1CCCCC1 gave a fold change of -8.4 (Monoacylglycerol lipase ABHD6 (Abhd6, Rattus norvegicus, UniProt Q5XI64); enzyme activity, ABPP; rat, brain; oral, 30 mg/kg/day, 1 days; reference: vehicle).
O=C(c1ccc(Cl)cc1)N1CCN2C(=O)N(OC(=O)N3CCOc4ccccc43)C(=O)C2C1 (stereo not shown) — result for “mean protein ratio”: 0.83 (Platelet-activating factor acetylhydrolase IB subunit alpha1 (Homo sapiens, UniProt Q15102); MS-based ABPP; SW-620 conditioned medium; 10 µM, 1 h, 37 °C; reference: compound over DMSO, lower = more inhibition).
Under “lowest concentration for DNA cleavage”, Nc1ncnc2c1ncn2[C@@H]1O[C@@H]2COP(=O)(O)O[C@@H]3[C@H](O)[C@@H](COP(=O)(O)O[C@H]2[C@H]1O)O[C@H]3n1cnc2c(N)ncnc21 is recorded as roughly 1 µM (CBASS effector Cap5 (Pseudomonas syringae, UniProt A0A2P0QGK5); plasmid DNA cleavage, agarose gel; 20 min, together with: plasmid DNA 50 nM).
The probe labelling of CN(C(=O)n1cnc(-c2ccc[n+]([O-])c2)c1)C1CCCCC1 is reported as -12.1 (Ahsg; competitive ABPP with azido-FP probe; rat brain soluble fraction; 10 µM, unit not given; reference: DMSO).
Clc1cc2c(cc1Cl)Oc1cc(Cl)c(Cl)cc1O2: “maximal fold induction” 6.57 ± 1.83 (Uncharacterized protein (Takifugu rubripes, UniProt Q4JHL4); reporter gene, agonist, dual-luciferase; COS-7; 24 h; reference: top over bottom).
For O=C1C(P(=O)(O)O)CC(O)N1O (stereo not shown), the selectivity ratio was 10 fold (enolase; NADH-linked; preincubated before substrate; reference: IC80 ENO1 over IC80 ENO2).
With O=C(O)c1ccc(CN2C(=O)CN(C(=O)c3ccco3)c3cc(-c4ccccc4)c(Oc4ccc(C(=O)O)cc4)cc32)cc1 the sGC activity was 4.8 fold (GUCY1B1, with alpha-1 subunit (Homo sapiens, UniProt Q02153, H105A); activator, purified enzyme; concentration not given; reference: basal).
For COc1ccc(F)cc1C(=O)NCc1ccc(-c2nn([C@@H](C)C(F)(F)F)c(N)c2C(N)=O)cc1, the selectivity ratio was 26.3 (MAP2K2 (Homo sapiens, UniProt P36507); enzyme activity; reference: MAP2K2 over BTK).
CCCC(=O)CC(=O)N[C@H]1CCOC1=O has a Hill slope of 1.8 (qscR, DNA-bound (Pseudomonas aeruginosa, UniProt G3XD77); DNA binding, ligand, EMSA; saturating ligand).
The kcat/Km decrease of CC=O is reported as 3 fold (ADH1 H48S Saccharomyces cerevisiae; enzyme activity, substrate; pH 7.3; reference: wild type).
COc1cc(O)cc(/C=C/c2ccc(O)cc2)c1 has a binding stoichiometry of 1.11 ± 0.008 (O-methyltransferase (Sorghum bicolor, UniProt A0A1B6PFV1); ITC; concentration not given, together with: SAH+).
The delta Tm of CCN(CC)CCCC[C@H](NC(=O)[C@H](CC(C)C)NC(=O)[C@H](C)NC(=O)[C@H](Cc1ccccc1)NC(=O)c1ccc(C(C)(C)C)cc1)C(=O)N[C@@H](CO)C(=O)OC is reported as 0.49 °C (Transcription intermediary factor 1-alpha, PHD-bromodomain (TRIM24, Homo sapiens, UniProt O15164); thermal stabilisation, thermal shift; 25 µM; reference: protein without compound, higher = stronger binding).
The binding stoichiometry of CC(C)C[C@@H]1NC(=O)[C@H](C(C)C)NC(=O)CNC(=O)[C@H](CC(N)=O)NC(=O)[C@@H]2CCCN2C(=O)[C@H](Cc2ccc(O)cc2)NC(=O)[C@H](CCCNC(=N)N)NC(=O)[C@H](Cc2ccccc2)NC(=O)[C@@H](NC(=O)[C@H](CCCCN)NC(=O)[C@@H]2CCCN2C(=O)[C@H](CO)NC(=O)[C@H](C)NC(=O)[C@@H](N)Cc2ccc(O)cc2)CSSC[C@@H](C(=O)N[C@H](C(N)=O)[C@@H](C)O)NC(=O)[C@H](C)NC1=O is reported as 0.129 (Alpha-2-HS-glycoprotein, asialo (AHSG, Bos taurus, UniProt P12763); isothermal titration calorimetry; concentration not given, pH 7.0, 25 °C, together with: asialofetuin).
With C#Cc1sc2ncn(CC(=O)N3CC(C)(F)C3)c(=O)c2c1-c1ccc(F)c(Br)c1 the current potentiation was roughly 280% (Grin1/Grin2b/Glutamate receptor ionotropic, NMDA 2D (Rattus norvegicus, UniProt P35439+Q00960+Q62645); potentiator, TEVC; Xenopus oocytes; 10 µM, triheteromeric receptor).
The kinact/KI of CO/N=C(\C(=O)N[C@@H]1C(=O)N2C(C(=O)O)=C(COC(C)=O)CS[C@H]12)c1csc(N)n1 is reported as 16000 ± 4700 M⁻¹ s⁻¹ (pbp2a; inhibitor).
COc1ccc(N2C(=O)N(c3c(C)cccc3Cl)Cc3cnc(Nc4ccc(C5CCN(C)CC5)cc4OC)nc32)nc1 has an inhibition of 85% (EGFR (Homo sapiens, UniProt P00533); kinase activity; 0.5 µM).
For O=C(Nc1cnccc1Cl)N1CCN(Cc2ccc3c(c2)OC(F)(F)O3)CC1, the probe labelling was -2.2 (Ahsg; competitive ABPP with azido-FP probe; rat brain soluble fraction; 10 µM, unit not given; reference: DMSO).
The fluorescence ratio of Nc1ncnc2c1ncn2[C@@H]1O[C@H](COP(=O)(O)OP(=O)(O)OP(=O)(O)O)[C@@H](O)[C@H]1O is reported as 3.3 (matB (Rhodopseudomonas palustris, UniProt Q6ND88, C106A/K488A/Q457C/R286C); ATP binding; pH 8.0, 100 mM NaCl; reference: bound over unbound).
With [2H]c1c([2H])c([C@]2([2H])CCCN2C(=O)C(C)(C)Oc2ccc3cn[nH]c3c2)c([2H])c([2H])c1C([2H])([2H])[2H] the remaining binding was 76% (SYK (Homo sapiens, UniProt P43405); KINOMEscan; 1 µM; reference: DMSO control).
Under “active site volume”, CC(C)(C)C(=O)CSc1ncc2c(n1)-c1cccnc1CC2 is recorded as 53.6 Å³ (Dual specificity protein phosphatase 10, catalytic domain (Homo sapiens, UniProt Q9Y6W6); X-ray co-crystal structure; concentration not given).
CC[C@H](C)[C@@H]1NC(=O)[C@H](Cc2c[nH]c3ccccc23)NC(=O)[C@H](Cc2ccc(O)cc2)NC(=O)CSC[C@@H](C(N)=O)NC(=O)[C@H]([C@@H](C)O)NC(=O)[C@H](CO)NC(=O)[C@H](C(C)C)NC(=O)[C@H](Cc2ccc(O)cc2)NC(=O)[C@H](CCCNC(=N)N)NC(=O)[C@H](Cc2ccc(O)cc2)NC(=O)[C@H]([C@@H](C)O)NC(=O)[C@H]([C@@H](C)O)NC(=O)[C@H](Cc2c[nH]c3ccccc23)NC(=O)[C@H](CO)NC(=O)[C@H](CC(N)=O)NC(=O)[C@H](CO)NC1=O has a ΔG of -9.1 ± 0.11 kcal/mol (Vacuolar protein sorting-associated protein 26A/Vacuolar protein sorting-associated protein 35, Vps35 residues 1–224 (Homo sapiens, UniProt O75436+Q96QK1); ITC; 25 °C).
C/C=C1/C(=O)C[C@H]2[C@@H]3CCC4=CC(=O)CC[C@]4(C)[C@H]3CC[C@]12C: IC50 “inactive” (NR1H3 (Homo sapiens, UniProt Q13133); coactivator recruitment).
COc1cc(N)c(Cl)cc1C(=O)NC1CN2CCC1CC2 (stereo not shown): “log2 fold change” -0.02 (GPR17 (Homo sapiens, UniProt Q13304); β-arrestin recruitment, TANGO luminescence; concentration not given; reference: basal luminescence).
CC[C@H](C)[C@H](NC(=O)CNC(=O)[C@@H](N)CCCCN)C(=O)N[C@@H](CC(C)C)C(=O)N[C@@H](CCCCN)C(=O)N[C@@H](CCCNC(=N)N)C(=O)N[C@@H](CCC(=O)O)C(=O)N[C@@H](CCCCN)C(=O)N[C@@H](CCCNC(=N)N)C(=O)N[C@@H](CC(C)C)C(=O)N[C@@H](CCCNC(=N)N)C(=O)N[C@@H](CCCNC(=N)N)C(=O)N[C@@H](CCCCN)C(=O)N[C@@H](CC(N)=O)C(=O)N[C@H](C(=O)N[C@@H](Cc1c[nH]cn1)C(=O)N[C@@H](Cc1c[nH]c2ccccc12)C(=O)N1CCC[C@H]1C(=O)N[C@@H](CCC(=O)O)C(=O)N[C@@H](CCC(=O)O)C(=O)NCC(=O)N[C@@H](CCCCN)C(=O)N[C@@H](CC(C)C)C(=O)N[C@@H](CCCNC(=N)N)C(=O)N[C@@H](CCC(=O)O)C(=O)N[C@@H](Cc1ccc(O)cc1)C(=O)N[C@@H](Cc1ccccc1)C(=O)N[C@@H](Cc1ccc(O)cc1)C(=O)N[C@@H](Cc1ccccc1)C(=O)N[C@@H](CCC(=O)O)C(=O)N[C@@H](CC(C)C)C(=O)N[C@@H](CC(=O)O)C(=O)N[C@@H](CCC(=O)O)C(=O)N[C@@H](C)C(=O)N[C@@H](CCC(=O)O)C(=O)N[C@@H](CCCNC(=N)N)C(=O)N[C@H](C(=O)N[C@@H](CC(N)=O)C(=O)N[C@H](C(=O)O)C(C)C)C(C)C)C(C)C — result for bead binding: “no effect” (PP2A, PP4, PP5, PP6 catalytic subunits; competitive inhibitor, competitive inhibitor bead pulldown MS; HeLa and HEK293T cells, cell lysate; concentration not given).
For CN[C@@H]1C[C@H]2O[C@@](C)([C@@H]1OC)n1c3ccccc3c3c4c(c5c6ccccc6n2c5c31)C(=O)NC4, the remaining activity was 59% (CDC2-like kinase 1 (Trypanosoma brucei brucei, UniProt Q382U0); kinase activity, ADP-Glo; 0.07812 µM).
With O=C[C@H](O)COP(=O)(O)O the Km was roughly 21 mM (TPI1 (Saccharomyces cerevisiae, UniProt P00942, Y208S); substrate, GPDH/NADH-coupled; pH 4.9, 25 °C).
For CC[C@@H](C)[C@@H](NC(=O)[C@@H](Cc1ccc(O)cc1)NC(=O)[C@H]1CCCN1C(=O)[C@@H](CCCNC(=N)N)NC(=O)[C@H](N)Cc1c[nH]cn1)C(=O)N[C@H](C)C(=O)N[C@H](Cc1c[nH]cn1)C(=O)N[C@H](CCCNC(=N)N)C(=O)N[C@H](CCCCNC(=O)c1cccc(S(=O)(=O)F)c1)C(=O)N[C@H](Cc1ccc(O)cc1)C(=O)N[C@H](CO)C(=O)N[C@H](Cc1ccccc1)C(N)=O, the surface expression was 0.372 and 0.383 (Transferrin receptor protein 1 (Tfrc, Mus musculus, UniProt Q62351); flow cytometry; MC-38; 48 h, unit not given; reference: 0 h).
The selectivity ratio of COc1cc2nccc(Oc3ccc(NC(=O)c4cc5c(n(-c6ccccc6)c4=O)CCCC5=O)nc3)c2cc1OC is reported as greater than 100 (LCK (Homo sapiens, UniProt P06239); cell viability, CellTiter-Glo; Ba/F3 expressing recombinant kinase; reference: LCK IC50 over AXL IC50).
COc1ccc(Nc2nn3c(-c4ccccc4)ccnc3c2C(=O)Nc2ccc(Cl)cc2)cc1 gave a band quantity of 0.76 a.u. (α-glucosidase; SDS-PAGE densitometry, refers to: 45 kDa band; 1 mg/mL; reference: untreated enzyme, lower = more denaturation).
